Results from different studies.
Numbers after ± are the reported error.
Cell line: RAW264.7

Compound	test	system	setting	measurement	value
N=C(N)NCCC[C@@H](NC(=O)[C@H](N)Cc1c[nH]c2ccccc12)C(=O)N[C@H](CCCCN)C(=O)N[C@H](Cc1c[nH]c2ccccc12)C(=O)N[C@H](CCCNC(=N)N)C(=O)N[C@H](CCCCN)C(=O)N[C@H](Cc1c[nH]c2ccccc12)C(=O)N[C@H](CCCNC(=N)N)C(=O)N[C@H](CCCCN)C(=O)N[C@H](Cc1c[nH]c2ccccc12)C(=O)N[C@H](CCCNC(=N)N)C(=O)N[C@H](CCCCN)C(N)=O	cytotoxicity, MTT	–	24 h	IC50	128 µM
COC1=C[C@@H]2[C@@H]3Cc4c(Br)cc(OC)c(OC(=O)c5cnc(C)cn5)c4[C@]2(CCN3C)CC1=O	cytotoxicity, MTT	–	24 h	IC50	> 100 µM
O=C(/C=C/CCl)OC1CCOC1=O (racemic)	cytotoxicity	–	–	IC50	> 49 µM
NCCCC[C@H](NC(=O)[C@H](Cc1ccc(O)cc1)NC(=O)[C@H](CCCCN)NC(=O)[C@H](Cc1c[nH]c2ccccc12)NC(=O)[C@H](Cc1ccccc1)NC(=O)[C@H](Cc1ccccc1)NC(=O)Cc1ccc(-c2ccccc2)cc1)C(=O)NCC(=O)N[C@@H](Cc1c[nH]cn1)C(=O)N1CCC[C@H]1C(=O)NCC(=O)NCC(=O)N1CCC[C@H]1C(=O)N[C@@H](CCC(N)=O)C(=O)N[C@@H](CC(=O)O)C(=O)N[C@@H](CC(=O)O)C(=O)N[C@@H](CC(=O)O)C(=O)N[C@@H](CC(=O)O)C(=O)N[C@@H](CC(=O)O)C(=O)N[C@@H](CC(=O)O)C(=O)O	CCK-8	–	concentration not given, 24 h	cytotoxicity	not toxic
CCCCCCCC/C=C\CCCCc1cc(=O)c2ccccc2n1C	–	–	48 h, 50% growth inhibition	GIC50	39 ± 12 mg/L
COc1cc(C=O)ccc1OC(=O)Cn1cnc2c1c(=O)n(C)c(=O)n2C	cell growth or viability, MTT	–	50 µM, 24 h	viability	90%
COC1=C[C@@H]2[C@@H]3Cc4c(COC(=O)c5nc(C)c(C)nc5C)cc(OC)c(OC(=O)c5nc(C)c(C)nc5C)c4[C@]2(CCN3C)CC1=O	cytotoxicity, MTT	–	24 h	IC50	54.9 ± 7.77 µM
CCCCC/C=C\C/C=C\CCCCCCCC(=O)OC[C@H](CO[C@@H]1O[C@H](CO)[C@H](O)[C@H](O)[C@H]1O)OC(=O)CCCCCCC/C=C\C/C=C\CCCCC	cell viability, MTT	serum-free medium	20 h	LD50	> 20 µM
COC1=C[C@@H]2[C@@H]3Cc4ccc(OC)c(OC(=O)CNC(=O)OC(C)(C)C)c4[C@]2(CCN3C)CC1=O	cytotoxicity, MTT	–	24 h	IC50	> 100 µM
CC[C@H](C)[C@H](NC(=O)[C@H](CCCCN)NC(=O)[C@H](CCCCN)NC(=O)[C@H](Cc1ccccc1)NC(=O)[C@H](CC(C)C)NC(=O)[C@@H](CCCCN)NC(=O)[C@H](Cc1c[nH]c2ccccc12)NC(=O)[C@H](CCCCN)NC(C)=O)C(=O)NCC(=O)N[C@@H](C)C(=O)N[C@H](C(=O)N[C@@H](CC(C)C)C(=O)N[C@H](CCCCN)C(=O)N[C@H](C(=O)N[C@@H](CC(C)C)C(N)=O)C(C)C)C(C)C	cell viability, MTT	–	1 h, 37 °C	LD50	78 µM
COC1=C[C@@H]2[C@@H]3Cc4ccc(OC)c(OC(=O)c5ccncn5)c4[C@]2(CCN3C)CC1=O	cytotoxicity, MTT	–	24 h	IC50	> 100 µM
COc1cc(C=O)ccc1OC(=O)COC(=O)Cn1cnc2c1c(=O)n(C)c(=O)n2C	cell growth or viability, MTT	–	50 µM, 24 h	viability	90%
CC[C@H](C)[C@H](NC(=O)CN)C(=O)NCC(=O)N[C@@H](C)C(=O)N[C@H](C(=O)N[C@@H](CC(C)C)C(=O)N[C@@H](CCCCN)C(=O)N[C@H](C(=O)N[C@@H](CC(C)C)C(=O)N[C@H](C(=O)N[C@H](C(=O)NCC(=O)N[C@@H](CC(C)C)C(=O)N1CCC[C@H]1C(=O)N[C@@H](C)C(=O)N[C@@H](CC(C)C)C(=O)N[C@H](C(=O)N[C@@H](CO)C(=O)N[C@@H](Cc1c[nH]c2ccccc12)C(=O)N[C@H](C(=O)N[C@@H](CCCCN)C(=O)N[C@@H](CCCNC(=N)N)C(=O)N[C@@H](CCCCN)C(=O)N[C@@H](CCCNC(=N)N)C(=O)N[C@@H](CCC(N)=O)C(=O)N[C@@H](CCC(N)=O)C(N)=O)[C@@H](C)CC)[C@@H](C)CC)[C@@H](C)O)[C@@H](C)O)C(C)C)C(C)C	cytotoxicity, MTT	–	4 h	IC20	2 µM
COC1=C[C@@H]2[C@@H]3Cc4ccc(OC)c(OC(=O)[C@H](C)N)c4[C@]2(CCN3C)CC1=O	cytotoxicity, MTT	–	24 h	IC50	> 100 µM
CC/C=C\C/C=C\C/C=C\CCCCCCCC(=O)OC[C@@H](O)CO[C@@H]1O[C@H](CO)[C@H](O)[C@H](O)[C@H]1O	cell viability, MTT	serum-free medium	20 h	LD50	> 100 µM
Cc1ccc(C(C)C)c(OC(=O)CSc2nnc(Cn3cnc4c3c(=O)n(C)c(=O)n4C)o2)c1	cell growth or viability, MTT	–	50 µM, 24 h	viability	93%
COC1=C[C@@H]2[C@@H]3Cc4c(Br)cc(OC)c(OC(=O)c5ccncn5)c4[C@]2(CCN3C)CC1=O	cytotoxicity, MTT	–	24 h	IC50	> 100 µM
CC(C)[C@@H]1CC[C@@H](C)C[C@H]1OC(=O)Cn1cnc2c1c(=O)n(C)c(=O)n2C	cell growth or viability, MTT	–	50 µM, 24 h	viability	91.4%
O=C(/C=C/CBr)O[C@@H]1COC(=O)C1	cytotoxicity	–	–	IC50	22 µM
C=CCc1ccc(OC(=O)Cn2cnc3c2c(=O)n(C)c(=O)n3C)c(OC)c1	cell growth or viability, MTT	–	50 µM, 24 h	viability	93%
COC1=C[C@@H]2[C@@H]3Cc4ccc(OC)c(OC(=O)[C@H](CC(C)C)NC(=O)OC(C)(C)C)c4[C@]2(CCN3C)CC1=O	cytotoxicity, MTT	–	24 h	IC50	> 100 µM
COc1cc(C=O)ccc1OC(=O)CSc1nnc(Cn2cnc3c2c(=O)n(C)c(=O)n3C)o1	cell growth or viability, MTT	–	50 µM, 24 h	viability	92%
COC1=C[C@@H]2[C@@H]3Cc4ccc(OC)c(OC(=O)[C@@H](N)Cc5ccccc5)c4[C@]2(CCN3C)CC1=O	cytotoxicity, MTT	–	24 h	IC50	> 100 µM
CC1CCC(C(C)C)C(OC(=O)Cn2cc(COC(=O)Cn3cnc4c3c(=O)n(C)c(=O)n4C)nn2)C1 (stereo not shown)	cell growth or viability, MTT	–	50 µM, 24 h	viability	86%
CC[C@H](C)[C@H](NC(=O)[C@@H](CCCCN)NC(=O)[C@@H](CCCCN)NC(=O)[C@H](Cc1ccccc1)NC(=O)[C@H](CC(C)C)NC(=O)[C@@H](CCCCN)NC(=O)[C@H](Cc1c[nH]c2ccccc12)NC(=O)[C@H](CCCCN)NC(C)=O)C(=O)NCC(=O)N[C@@H](C)C(=O)N[C@H](C(=O)N[C@@H](CC(C)C)C(=O)N[C@H](CCCCN)C(=O)N[C@H](CCCCN)C(=O)N[C@@H](CC(C)C)C(N)=O)C(C)C	cell viability, MTT	–	1 h, 37 °C	LD50	131 ± 15 µM

A few entries again:
Compound	test	system	setting	measurement	value
COc1cc(C=O)ccc1OC(=O)CSc1nnc(Cn2cnc3c2c(=O)n(C)c(=O)n3C)o1	cell growth or viability, MTT	–	50 µM, 24 h	viability	92%
COC1=C[C@@H]2[C@@H]3Cc4ccc(OC)c(OC(=O)[C@@H](N)Cc5ccccc5)c4[C@]2(CCN3C)CC1=O	cytotoxicity, MTT	–	24 h	IC50	> 100 µM
CC1CCC(C(C)C)C(OC(=O)Cn2cc(COC(=O)Cn3cnc4c3c(=O)n(C)c(=O)n4C)nn2)C1 (stereo not shown)	cell growth or viability, MTT	–	50 µM, 24 h	viability	86%
